Measured values collected from several papers.
Protocols differ between the studies behind these lines. pEC50, pIC50: −log10 of the molar value.
Cell line: THP-1

Structure (SMILES) | assay | system | conditions | how to read | endpoint | result
CC(C)(C)c1ccc(S(=O)(=O)/C=C/C#N)cc1 | TNF-α release, inhibitor, ELISA |  | 17 h, LPS-stimulated |  | pIC50 | 6.53
O=C(O)c1cc(O)c2c(c1)C(=O)c1cccc(O)c1C2=O | cell growth or viability, ATP luminescence |  | 24 h |  | pIC50 | 3.80
O=C(O)c1cc(/N=N/c2ccc(S(=O)(=O)Nc3ccccn3)cc2)ccc1O | inhibitor, tdTomato flow cytometry |  | high, with: 2'3'-cGAMP or RR CDA |  | reporter gene activation | inhibited
COc1c(OC)c(O)c2c(=O)cc(-c3ccc(O)cc3)oc2c1OC | antioxidant effect, OPT fluorometric glutathione, item: redox index GSH/total glutathione | cell extract |  |  | pEC50 | 5.34
O=c1cc(-c2ccccc2)oc2cc(O)cc(O)c12 | cell growth or viability, ATP luminescence |  | 24 h |  | pIC50 | 3.30
O=C(Nc1nc2ccccc2n1CCN1CCOCC1)c1cccc([N+](=O)[O-])c1 | TNF-α release, inhibitor, ELISA |  | 17 h, LPS-stimulated |  | pIC50 | 6.28
C(=C\c1ccccc1)/c1ccccc1 | cell growth or viability, ATP luminescence |  | 24 h |  | pIC50 | 3.42
COc1ccc(-c2cc(=O)c3cc(OC)ccc3o2)c(OC)c1 | antioxidant effect, OPT fluorometric glutathione, item: GSH/(GSH + GSSG) | cell extract |  | baseline: 1 = all glutathione reduced, higher = more antioxidant | Emax of redox index | 0.74
Cc1cccc2oc3c(CC(=O)O)cccc3c(=O)c12 | IRF3 luciferase reporter |  | up to 1 mM, 4 h, with: c-di-GMP |  | IRF3 activation | inactive
Oc1ccc(/C=C/c2cc(O)cc(O)c2)cc1 | antioxidant effect, OPT fluorometric glutathione, item: redox index GSH/total glutathione | cell extract |  |  | pEC50 | 5.73
Cc1cccc2c(=O)c3cccc(CC(=O)O)c3oc12 | IRF3 luciferase reporter |  | up to 1 mM, 4 h, with: c-di-GMP |  | IRF3 activation | inactive
Cc1ccc(S(=O)(=O)/C=C/C#N)cc1 | TNF-alpha production, inhibitor |  | with: LPS |  | pIC50 | 5.92

For quick reference, copied from above:
Structure (SMILES) | assay | system | conditions | how to read | endpoint | result
O=c1cc(-c2ccccc2)oc2cc(O)cc(O)c12 | cell growth or viability, ATP luminescence |  | 24 h |  | pIC50 | 3.30
